Assay results pooled from the literature.
Each line is one published result; not all experiments were run side by side. “And” joins repeats or separate records; there may be more than shown. Numbers after ± are the reported error. Where no end group is shown, it is not given here. [ ]: non-standard residue; d: D form.
KDM5A: KDM5A 287-347 (Homo sapiens, UniProt P29375)
B1: RPN10 R23E/D31K/E68K (Saccharomyces cerevisiae, UniProt P38886); chain MVLEATVLVIDNSEYSRNGDFPETRFEAQIKSVEFIFQAKRNSNPENTVGLISGAGANPRVLSTFTAKFGKILAGLHDTQIEGKLHMATALQIAQLTLKHRQNKVQHQRIVAFVCSPISDSRDELIRLAKTLKKNNVAVDIINFGEIEQNTELLDEFIAAVNNPQEETSHLLTVTPGPRLLYENIASSPIILEEGSSGMGAFGGSGGDSDANGTFMDFGVDPSMDPELAMALRLSMEEEQQRQERLRQQQQQQDQPEQSEQPEQHQDK
B2: Ric8b 1-483 E400A (Mus musculus, UniProt Q80XE1); chain MDEERALYIVRAGEAGAIERVLRDYSDKHRATFKFESADEDKRKKLCEGIFKVLVKEVPTTCQVSCLEVLRILSRDKKILVPVTTKENMQILLRLAKLHESDDSLEKVSEFPVIVESLKCLCNIVFNSQMAQQLSLELNLAAKLCNLLRKCKDRKFINDIKCFDLRLLFVLSLLHTDIRSQLRYELQGLPLLTQILESAFSIKWTDEYESAIDHNGPPLSPQETDCAIEALKALFNVTVDSWKVHKESDSHQFRVMAAVLRHCLLIVGPTEDKTEELHSNAVNLLSNVPVSCLDVLICPLTHEETAQEAATLDELPSDKTTEKDTALKNSTMVYNGMNMEAIHVLLNFMEKRIDKGSSYREGLTPVLSLLTECSRAHRNIRKFLKDQVLPPLRDVTNRPAVGSTVRNKLVRLMTHVDLGVKQIAAEFLFVLCKERVDSLLKYTGYGNAAGLLAARGLLAGGRGDNWYSEDEDTDTEEYKNAKP
B3: Bcar1 (Rattus norvegicus, UniProt Q63767); phosphotyrosine; sequence looked up; chain MKYLVSVGAGPARRAGGLEDVSWGPRVSRRPQSYRAARHVNESLPRSAFRVPAAHGASVTPSAALGSGLPETQPEAVCRGTEKPRFAEGCKPAASRDKNVLAKALYDNVAESPDELSFRKGDIMTVLERDTQGLDGWWLCSLHGRQGIVPGNRLKILVGMYDKKPAAPGPGPPATPPQPQPSLPQGVHTPVPPASQYSPMLPTAYQPQPDNVYLVPTPSKTQQGLYQAPGPNPQFQSPPAKQTSTFSKQTPHHSFPSPATDLYQVPPGPGSPAQDIYQVPPSAGTGHDIYQVPPSLDTRSWEGTKPPAKVVVPTRVGQGYVYEASQAEQDEYDTPRHLLAPGSQDIYDVPPVRGLLPNQYGQEVYDTPPMAVKGPNGRDPLLDVYDVPPSVEKGLPPSNHHSVYDVPPSVSKDVPDGPLLREETYDVPPAFAKPKPFDPTRHPLILAAPPPDSPPAEDVYDVPPPAPDLYDVPPGLRRPGPGTLYDVPRERVLPPEVADGSVIDDGVYAVPPPAEREAPTDGKRLSASSTGSTRSSQSASSLEVVVPGREPLELEVAVETLARLQQGVSTTVAHLLDLVGSASGPGGWRSTSEPQEPPVQDLKAAVAAVHGAVHELLEFARSAVSSATHTSDRTLHAKLSRQLQKMEDVYQTLVVHGQVLDSGRGGPGFTLDDLDRLVACSRAVPEDAKQLASFLHGNASLLFRRTKAPGPGPEGSSSLHLNPTDKASSIQSRPLPSPPKFTSQDSPDGQYENSEGGWMEDYDYVHLQGKEEFEKTQKELLEKGNIVRQGKGQLELQQLKQFERLEQEVSRPIDHDLANWTPAQPLVPGRTGGLGPSDRQLLLFYLEQCEANLTTLTDAVDAFFTAVATNQPPKIFVAHSKFVILSAHKLVFIGDTLSRQAKAADVRSKVTHYSNLLCDLLRGIVATTKAAALQYPSPSAAQDMVDRVKELGHSTQQFRRVLGQLAAA
B4: sevA 1-111 (Dictyostelium discoideum, UniProt P10733); chain MIKNRKLDITSTNVAGIGTDLDKKCRLDAASTEAQWKGVGQAPGLKIWRIENFKVVPVPESSYGKFYDGDSYIILHTFKEGNSLKHDIHFFLGTFTTQDEAGTAAYKTVEL
B5: UGT1A9 (Homo sapiens, UniProt O60656); chain GKLLVVPMDGSHWFTMRSVVEKLILRGHEVVVVMPEVSWQLGRSLNCTVKTYSTSYTLEDLDREFKAFAHAQWKAQVRSIYSLLMGSYNDIFDLFFSNCRSLFKDKKLVEYLKESSFDAVFLDPFDNCGLIVAKYFSLPSVVFARGILCHYLEEGAQCPAPLSYVPRILLGFSDAMTFKERVRNHIMHLEEHLLCHRFFKNALEIASEILQTPVTEYDLYSHTSIWLLRTDFVLDYPKPVMPNMIFIGGINCHQGKPLPMEFEAYINASGEHGIVVFSLGSMVSEIPEKKAMAIADALGKIPQTVLWRYTGTRPSNLANNTILVKWLPQNDLLGHPMTRAFITHAGSHGVYESICNGVPMVMMPLFGDQMDNAKRMETKGAGVTLNVLEMTSEDLENALKAVINDKSYKENIMRLSSLHKDRPVEPLDLAVFWVEFVMRHKGAPHLRPAAHDLTWYQYHSLDVIGFLLAVVLTVAFITFKCCAYGYRKCLGKKGRVKKAHKSKTH
B6: JUN (Homo sapiens, UniProt P05412); sequence looked up; chain MTAKMETTFYDDALNASFLPSESGPYGYSNPKILKQSMTLNLADPVGSLKPHLRAKNSDLLTSPDVGLLKLASPELERLIIQSSNGHITTTPTPTQFLCPKNVTDEQEGFAEGFVRALAELHSQNTLPSVTSAAQPVNGAGMVAPAVASVAGGSGSGGFSASLHSEPPVYANLSNFNPGALSSGGGAPSYGAAGLAFPAQPQQQQQPPHHLPQQMPVQHPRLQALKEEPQTVPEMPGETPPLSPIDMESQERIKAERKRMRNRIAASKCRKRKLERIARLEEKVKTLKAQNSELASTANMLREQVAQLKQKVMNHVNSGCQLMLTQQLQTF
B7: Spt4/Spt5 complex (Thermococcus kodakarensis); chain 1 MAKERACRHCHYITTEDRCPVCGSRDLSDDWFDLVIVLDVESRIAKKLRESIPEAAKVPGKYAIRVR; chain 2 MAEGKIFTVSVTVGQETTTANLIYSKAKTYNLPLYAILSPSKVKGYIFIEAPNKSAVEEAIRGIRHAKRVLPGEIPFSEIEHFLEEKPAVSGFEPGDIVELIAGPFKGEKAKVVRVDESKDEIVVELVSSVVPIPVTVRGEYVRLISKRQKE

| Substance | tested on | assay | test system | conditions | scale | endpoint | result |
| --- | --- | --- | --- | --- | --- | --- | --- |
| CYB5A holo (Homo sapiens, UniProt P00167) | CYP3A4 N-terminally truncated (Homo sapiens, UniProt P08684) | testosterone 6β-hydroxylation | – | added: CPR | reference: without b5, higher = greater b5 stimulation | catalytic efficiency ratio | 2.7 |
| B1 (RPN10 R23E/D31K/E68K) | RPT5 (Saccharomyces cerevisiae, UniProt P33297) | SspB-delivered substrate degradation, fluorescence polarisation | – | – | reference: wild type proteasome, higher = more degradation | relative substrate degradation | 1.6 fold |
| B2 (Ric8b 1-483 E400A) | GNAL 1-381 (Homo sapiens, UniProt P38405) | luminescence | RIC-8B knockout HEK293T | – | reference: wild-type Ric-8B, higher = more folding | sensor folding | 32% |
| ARTKWTARKS (Histone H3.1 2-11 Q5W (Homo sapiens, UniProt P68431); sequence looked up) | KDM5A | competition with labeled peptide, fluorescence polarisation | peptide | added: H3 peptide | – | Ki | 1050 nM |
| Prickle2 (Mus musculus, UniProt Q80Y24) | Vangl2 (Mus musculus, UniProt Q91ZD4) | co-IP | HEK293T | 0.2 µg | reference: control, higher = more E-cadherin | E-cadherin coprecipitated | 0.75 a.u. |
| NOTCH2NLB (Homo sapiens, UniProt P0DPK3) | NOTCH2 (Homo sapiens, UniProt Q04721) | NOTCH2-GAL4 reporter | U2OS | co-culture with JAG2 cells | reference: empty vector, higher = more activation | reporter activation | 21% |
| ACTN1 fragment (Homo sapiens) | TNFRSF10A (Homo sapiens, UniProt O00220) | two-hybrid | – | – | higher = stronger interaction | β-galactosidase activity | 0.01 ± 0.01 Miller units |
| NGYENPTFKFFE (APP peptide 755-766 Y762F (Homo sapiens, UniProt P05067); sequence looked up) | APBA2 364-570 (Homo sapiens, UniProt Q99767) | fluorescence polarisation | peptide | added: TAMRA-labelled APP peptide 50 nM | – | Ki | 1000 nM |
| cyp102A1 flavin reductase domain (Bacillus megaterium) | CYP3A4 del3-12 (Homo sapiens, UniProt P08684) | BMR-dependent reduction | nanodiscs | added: ANF | – | slow phase rate constant | 0.0032 s⁻¹ |
| B3 (Bcar1) | Ptk2, serine dephosphorylated (Rattus norvegicus, UniProt O35346) | pull-down | – | 30 min, 4 °C | reference: untreated mitotic FAK, higher = more CAS bound | relative binding | > 3 fold |
| Insulin human | – | ELISA | rat, striatum | intranasal, 20 µg per nostril, 60 min | – | concentration | 74.8 ± 28.1 pg/mg tissue |
| Spz-1 fragment (Manduca sexta) | Toll 13-963 (Manduca sexta, UniProt A4GVU0) | drosomycin promoter reporter | S2 cells | – | reference: control, higher = more activity | relative luciferase activity | 25 fold |
| CXCL8 (Homo sapiens, UniProt P10145) | CXCR5 (Homo sapiens, UniProt P32302) | label-free dynamic mass redistribution | HEK293T | – | higher = stronger response | maximal response | 23.2 DMR |
| PICK1 K251E/K252E/K257E/K266E/K268E (Mus musculus) | Wwc1 (Mus musculus, UniProt Q5SXA9) | co-IP | HEK293T | – | reference: wild-type PICK1, higher = more binding | relative co-precipitation | 0.67 fold |
| Ac-DNCQYVYNV-NH2 (N-acetyl, C-amide) | mouse cathepsin G | enzyme activity | peptide, neutrophil lysate | 1.25 or 2.5 mM, pH 8.0, 37 °C | – | inhibition | inhibited |
| B4 (sevA 1-111) | actin G-actin, pyrene label (Oryctolagus cuniculus, UniProt P68135) | actin polymerization, inhibitor | – | 50 nM, 14 h, capping, added: EGTA | reference: control, higher = more F-actin | F-actin at steady state | 97.5% |
| FGF2 (Homo sapiens, UniProt P09038) | FGFR3 isoform IIIc (unknown, UniProt Q61851) | cell proliferation, MTT | BaF3-FGFR3c | 0 to 320 nM, added: chondroitin sulfate B 4.9 µg/mL | – | half-maximal concentration | 5.6 nM |
| SHH fragment I111E/N115K (Homo sapiens) | PTCH1 fragment del619-720 (Homo sapiens) | Hh reporter | Shh-Light II | – | reference: wild-type Shh-N, higher = more loss | Hh reporter activity lost | > 70% |
| GAGUUGAGUUGAGUUGAGUUGAGUUGAGUUGAGUUGAGUUGAGUUGAGUUGAGUU (ssRNA; single strand) | mtrB full length assumed E36A (Bacillus subtilis, UniProt P19466) | filter binding | – | added: L-tryptophan 1 mM | – | Kd | 407 ± 42 nM |
| ssb fragment (Escherichia coli) | priA (Escherichia coli, UniProt P17888) | ATPase activity | – | – | reference: his-SSB, higher = more stimulation | ATPase stimulation | 85% |
| Rif1 (Mus musculus, UniProt Q6PR54) | TP53BP1 (Homo sapiens, UniProt Q12888) | co-IP | B cells | – | reference: unirradiated cells, higher = more Rif1 bound | co-precipitated Rif1 | > 3 fold |
| PNPLA3 (Homo sapiens, UniProt Q9NST1) | ABHD5 (Homo sapiens, UniProt Q8WTS1) | FCCS | transfected cells | in cells, added: oleic acid | higher = more complexes | cross-correlation fraction | 0.32 ± 0.04 |
| B5 (UGT1A9) | O=c1c(O)c(-c2cccc(O)c2)oc2ccccc12 | steady-state kinetics | – | pH 7.4, 37 °C | – | Vmax/Km | 29000 µL/min/mg |
| EPB41 fragment (Homo sapiens) | SLC9A1 residues 506-575 (Rattus norvegicus) | resonant mirror | – | – | – | koff | 0.0071 s⁻¹ and 0.0095 s⁻¹ and 0.0054 s⁻¹ and 0.0034 s⁻¹ |
| ARTKQTARKS (Histone H3.1 2-11 (Homo sapiens, UniProt P68431); sequence looked up) | KDM5A | competition with labeled peptide, fluorescence polarisation | peptide | added: H3 peptide | – | Ki | 820 nM |
| B6 (JUN) | PAGE4 A18C, Alexa 555/647 on C18, C63 (Homo sapiens, UniProt O60829) | fluorescence | – | added: c-Jun | reference: before adding c-Jun, higher = brighter | quantum yield ratio | 1.27 fold |
| YAKRKRKKREKLILTL (WDR3 D-site peptide (Homo sapiens)) | MAPK8, pT183, pY185 (Homo sapiens, UniProt P45983) | kinase activity, inhibitor, competitive kinase inhibition assay | peptide | added: ATP 1 mM | – | IC50 | 900 nM |
| [dA]VIA (D-Ala1) | PC-12 | protection from Aβ1–42 toxicity, MTT | – | concentration not given, 6 h, Aβ to peptide ratio 1:1, added: Aβ1–42 2 µM | reference: untreated cells | cell viability | 70% |
| B7 (Spt4/Spt5 complex) | RNA polymerase (Thermococcus kodakarensis) | in vitro transcription | – | 6 µM, 85 °C, protein-free templates | reference: no factor, higher = more transcript | full-length transcript production | 20% |

For quick reference, copied from above:
| Substance | tested on | assay | test system | conditions | scale | endpoint | result |
| --- | --- | --- | --- | --- | --- | --- | --- |
| B3 (Bcar1) | Ptk2, serine dephosphorylated (Rattus norvegicus, UniProt O35346) | pull-down | – | 30 min, 4 °C | reference: untreated mitotic FAK, higher = more CAS bound | relative binding | > 3 fold |
| Insulin human | – | ELISA | rat, striatum | intranasal, 20 µg per nostril, 60 min | – | concentration | 74.8 ± 28.1 pg/mg tissue |
